Experimental data collected from several papers.
Every numbered part comes from another study and shows a few of its results, in no order. Positions count from the first letter of the parent shown.

Series 1 — technique: universal PBM; form: double-stranded DNA, one strand shown; sample: in vitro; tested at: 600 nM; reading: higher = stronger binding; endpoint: E-score
Target: Sal-like protein 4, full length isoform A (SALL4, Homo sapiens, UniProt Q9UJQ4, residues 1-1053)
UniProt Q9UJQ4, sequence (whole entry, looked up): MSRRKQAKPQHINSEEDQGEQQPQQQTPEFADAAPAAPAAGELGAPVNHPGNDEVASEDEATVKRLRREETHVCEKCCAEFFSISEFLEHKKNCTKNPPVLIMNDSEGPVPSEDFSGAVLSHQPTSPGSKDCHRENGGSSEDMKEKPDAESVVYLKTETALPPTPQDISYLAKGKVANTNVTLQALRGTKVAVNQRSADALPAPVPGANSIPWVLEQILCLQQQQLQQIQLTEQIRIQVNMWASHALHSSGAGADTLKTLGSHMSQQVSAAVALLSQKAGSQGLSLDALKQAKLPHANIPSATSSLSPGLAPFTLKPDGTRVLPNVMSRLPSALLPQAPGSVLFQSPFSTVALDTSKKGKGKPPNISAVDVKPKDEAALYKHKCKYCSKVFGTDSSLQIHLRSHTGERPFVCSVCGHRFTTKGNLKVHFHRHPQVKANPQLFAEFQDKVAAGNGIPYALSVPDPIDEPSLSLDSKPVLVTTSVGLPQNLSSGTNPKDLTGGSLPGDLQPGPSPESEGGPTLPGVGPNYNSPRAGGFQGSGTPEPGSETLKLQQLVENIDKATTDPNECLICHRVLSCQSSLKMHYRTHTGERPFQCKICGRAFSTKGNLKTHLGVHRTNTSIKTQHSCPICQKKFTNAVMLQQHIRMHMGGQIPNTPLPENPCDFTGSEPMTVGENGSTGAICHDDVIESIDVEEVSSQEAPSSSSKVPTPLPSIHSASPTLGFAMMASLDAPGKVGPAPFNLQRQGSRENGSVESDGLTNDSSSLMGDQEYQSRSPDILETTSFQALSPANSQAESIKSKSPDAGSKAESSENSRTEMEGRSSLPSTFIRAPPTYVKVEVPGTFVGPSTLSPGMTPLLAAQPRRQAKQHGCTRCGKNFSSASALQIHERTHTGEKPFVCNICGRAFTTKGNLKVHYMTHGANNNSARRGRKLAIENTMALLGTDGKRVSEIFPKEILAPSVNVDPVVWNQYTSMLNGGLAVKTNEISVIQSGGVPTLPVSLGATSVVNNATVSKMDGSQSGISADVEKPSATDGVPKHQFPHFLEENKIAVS
Setting: 8-mer, flanks averaged, mean of replicates
CTGGAGAA: -0.158
CGCCATCC: -0.193
CAGGGTAG: -0.292
ACGGTTCA: -0.159
GGTCCAAC: -0.279
ATGTCTTC: 0.127
AGAGAGGA: -0.0978
CATAAAAG: 0.316
CCGATTGC: -0.0592
TCCTTGCA: -0.269
ATACGTAA: 0.28
GAGGCCAA: -0.176
CAGGAAAA: 0.0826
GAGTGGAA: 0.107
CGGGGTTA: -0.142
AGAGAACA: 0.0661
AATACCCG: 0.00483
CAGCGTGG: -0.191
CGCCAACC: -0.234
GGTGATGA: 0.0387
ATCTCTCA: 0.0286
CGTGAACG: -0.288
ATTGAAAC: 0.27
AATTAACT: 0.224
CGCCATCA: -0.095

Series 2 — technique: protein binding microarray; form: double-stranded DNA, one strand shown; sample: in vitro; tested at: not given; baseline: not given; reading: higher = stronger binding; endpoint: E-score
Target: Histone acetyltransferase KAT6A, winged helix 1, GST fusion (KAT6A, Homo sapiens, UniProt Q92794, residues 1-85)
Setting: 8-mer, flanks averaged, mean of 2 arrays, mostly near background
Target sequence (chain): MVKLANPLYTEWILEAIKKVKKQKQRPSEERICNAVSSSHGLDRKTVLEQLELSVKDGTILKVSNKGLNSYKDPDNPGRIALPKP
CTTAGTCC: 0.00647
AAACATAT: 0.0352
AGTTGACC: -0.0248
CACATCTA: -0.125
AGCACCTA: -0.156
GCGGTTTA: 0.256
AGCTAAAT: -0.162
CGCTAATA: 0.233
ATAGGCCC: 0.0611
ACCGAAAT: -0.0272
ACAGACCG: 0.136
ATCCTCCC: -0.0614
GCATCCCA: -0.1
AGCGCAAC: 0.231
ACACGTAC: -0.0333
GAGCCACA: -0.174
GGATTTAA: 0.101
GGAAGTCC: 0.00439
GCGATGCC: 0.282
CACGTCGA: -0.105
TCAGACAA: -0.152
CCTTCGAC: -0.104
CGATGTAA: 0.109
CTTCGCCA: 0.0203
GTTGACCA: -0.185

Series 3 — technique: RNA Bind-n-Seq; form: RNA; sample: in vitro; tested at: 365 nM; baseline: no-protein control; reading: higher = stronger binding; endpoint: RBNS enrichment (R)
Target: RNA binding protein fox-1 homolog 2, RRM domain, GST-SBP tag (RBFOX2, Homo sapiens, UniProt O43251-10, residues 100-194)
Setting: natural RNA segment, single round, ends assumed
Shared flanks, not repeated: GGGAGUUCUACAGUCCGACGAUC … UGGAAUUCUCGGGUGCCAA
Target sequence (chain): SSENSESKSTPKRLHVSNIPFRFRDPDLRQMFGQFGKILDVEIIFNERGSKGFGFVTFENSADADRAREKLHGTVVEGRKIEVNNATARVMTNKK
GCAACCAGAAAGGGUGUCUGGGAUAUGAGCAGAUGUGGCAUCUUCCAGAAAUGAUCAUCUGGUUAUGGAAUGAAGGGACCUGUUCUCAAGCAAAGGUCAUCACAGUGACC: 0.832
ACAUCACAGUUCUUCCUUUUAACUCUAGUGACCCGGGGUCCGAGUUGCCCCUAUGCUUCCAGGGCAAUUUGGAGCAGACAGACCAGUGGGGGGUGGGGAACCUCCUUCCA: 0.365
UGGAGGAAGGAAGGCUAAGAACUGUCCUUGAGGAACUUCAUCAGUAACUCUGGUAAAGCAUCCUGUGGAGGGAGAGGAGAGCCCAGUCAUUUGCUUAGAUGGUGUUUGUG: 0.722
CUAAUAAAUAUUUUUUUAUGAAGAGGAAAAAUGUGUAGAUUACAUUUCACAUUUUGUAUUUUUGUUUGUGUCUGUUUGUAUUUUGGUGUUUACAACACCAAAGUGGGAAA: 0.394
AAGGAGCUGCCUUAAAUGGCCCAGUGUGUGCUGCUGCCGCCCGGCCACGGCCCACCCUGGUCAGGCUGCCUCCUUAAUCGAGAAAACUACCUGGUGAUGCAAUCUUUUUU: 0.343
CGUACUGAAAUAGGAAGUCAUGCUCUUCCCACCCUCCACCCACCAGAGUGGAACCCGCUGCAAAAUCCCCAGCCUUAAUUCUUGCUUCAGGACCCAGACCGGUGUCUUGC: 0.541
UAUGGACCAUCUUCAAACUGCUGGAUCCCCUGUAUAUGUUGAAUGAUGCCUGGUGGUCUUACAGCAUCACUGGCACACUAACGUCGGACUGUGUGAUUGAGCCCAAGAAG: 0.727
UUUAGAACGGAUUUCUCAGGUAUAGGGAGUUGAUUUCUUAAUACUUUUUGAAUUAUGAAAAAUAGCAAUAUUAAAAUUUAUAAUUGAGGAAUUUAUAGAAAGAUGACAUG: 0.543
AAAAUAACAGUUUCAUUGAGAUCAGUAGUAAAUUUUACUAUGUUUUUUUUAAAGCUUACGUACUUGAAUUUUAUAUCAGGAAGAUGGUUUUUGAGCCUGUUCCUUACCCU: 0.415
GGAUUUUUUUAUACGGUUUUCAUUGACACUCUUCCCUCCUCCCACCUGCCACCAGGCCUCACCAAAGCCCACUGCCAUGGGGCCAUCUGGGCCAUUCAGAGACUGGAGUG: 0.243
GCAUGCAAAUCCAUAUUCUAGCACACCACACAGUGCCCACAGCUCUGCGGUGCUGAGCCAGCAGAAAUGAUUUCUUCAGCAGAUGUACCAGCUGUCAUCACUGACGUAUG: 4.43
UUCUAAACUUAUAUAAUGACCUGAUUUUCUUUCUUGCAAUUUUUCCCCCUUUUUAAUUGAGAGGAUCGUUCGAAUGAGCCUCUGUGGCCUCUCCUUAGAGGCCUUCACAA: 0.702

Series 4 — target: CCNF, cyclin fold, Cln2 fusion (human); technique: yeast growth competition, sequencing; sample: yeast; setting: strong parent motif; baseline: not given; reading: higher = stronger binding; endpoint: normalised enrichment score
Starting sequence: ORC1 docking peptide (human); PRARKRLELGNLG
PRARKRLELGNLD [G13D]: 5.42
PRARKRLELGNLR [G13R]: 3.1
PRARKRDELGNLG [L7D]: 1.15
PRMRKRLELGNLG [A3M]: 2.93
PLARKRLELGNLG [R2L]: 1.97
PRACKRLELGNLG [R4C]: 1.97
PRARKRLWLGNLG [E8W]: 3.52
PRARKRLNLGNLG [E8N]: 2.97
PRARKRLEWGNLG [L9W]: 3.65
PRAFKRLELGNLG [R4F]: 1.91
PRSRKRLELGNLG [A3S]: 1.47
PRARKRLELNNLG [G10N]: 2.41
PRARKDLELGNLG [R6D]: 0.599
PRARYRLELGNLG [K5Y]: 1.12
PRARKRLEHGNLG [L9H]: 1.52
PRARKRNELGNLG [L7N]: 1.36
PRARKRLELGNEG [L12E]: 3.77
PRARKRLGLGNLG [E8G]: 1.5
PRARKLLELGNLG [R6L]: 1.95

Series 5 — technique: protein-binding microarray; form: double-stranded DNA, one strand shown; sample: in vitro; tested at: 250 nM; setting: 60-bp whole probe; added: salmon DNA 0.4 mg/ml; baseline: random background probes; reading: higher = stronger binding; endpoint: log fluorescence; shared flanks, not repeated: GCCTAGCAC … GTCTTGATTCGCTTGACGCTGCTG
Target: Interferon regulatory factor 7, full length, phosphomimetic (IRF7, Homo sapiens, UniProt Q92985, residues 1-503, S101K/S471D/S472D/S475D/S476D/S477D/S483D/S484D/S487D)
UniProt Q92985, sequence (whole entry, unmodified, looked up): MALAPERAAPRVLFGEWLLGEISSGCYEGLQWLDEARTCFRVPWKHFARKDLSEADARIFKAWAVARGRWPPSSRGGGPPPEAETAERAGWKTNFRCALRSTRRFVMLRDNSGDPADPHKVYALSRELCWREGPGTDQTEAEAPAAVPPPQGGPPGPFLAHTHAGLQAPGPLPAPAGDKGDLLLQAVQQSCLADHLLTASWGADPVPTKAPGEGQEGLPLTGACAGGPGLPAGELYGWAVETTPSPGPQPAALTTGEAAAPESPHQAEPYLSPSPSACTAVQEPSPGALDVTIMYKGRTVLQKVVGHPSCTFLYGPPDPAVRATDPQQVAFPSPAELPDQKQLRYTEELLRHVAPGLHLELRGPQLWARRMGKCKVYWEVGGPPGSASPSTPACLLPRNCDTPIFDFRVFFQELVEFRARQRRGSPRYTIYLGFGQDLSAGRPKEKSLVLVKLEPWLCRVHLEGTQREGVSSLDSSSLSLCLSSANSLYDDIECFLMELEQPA
TTAGGGTTCCTTATCCTTTAGTGCTAG: 0.397 z-score
TTAGGTTTCGGTCTCTGTTAGTGCTAG: 10.1 z-score
ATAAAAATCTTTGTTGGAGGGGTGCTA: -0.177 z-score
TTAGGTATCGGTCTAGGTTAGTGCTAG: 0.78 z-score
TCATTTTGGTCTTTCTGACTGTGCTAG: 0.947 z-score
GACGGTTTCCTTTTCCTGGCGTGCTAG: 6.92 z-score
TTAGGTTTCGGTTCCGGTAAGTGCTAG: 12.8 z-score
TGGCACCTCTAGACTCTAAATGTGCTA: -0.825 z-score
TCAGTGCTCATCTGTCATACTGTGCTA: -0.759 z-score
TCAGTTGTACTTTCTATCACTGTGCTA: 0.305 z-score
GGCGATCTCAGTATCGAGACGTGCTAG: -0.267 z-score
TAGCATGTAATTTGTTTGCAGTGCTAG: -0.297 z-score
TTCGATTTCAGACTGGATTAGTGCTAG: 0.619 z-score
GACGGTTTAGACTATCGGGACGTGCTA: 0.101 z-score
ATTGCTTTCTCTTTCACTGCGTGCTAG: 1.08 z-score
TTAGGACTCGACTATCGGTTAGTGCTA: 0.446 z-score
GACGGACTGGACACTGGGGCCGTGCTA: -1.04 z-score
GACGATTTCGGGACTGGAGAAGTGCTA: 0.295 z-score
GACGGTCTGGGGTATCGGGACGTGCTA: -0.461 z-score
GACGGACTGGGACTGGGGACGTGCTAG: -0.3 z-score
TTAGGTTTCCACTATCGGTTAGTGCTA: 2.01 z-score
GACGATATCAGCATCGAGACGTGCTAG: -0.355 z-score
TCATCTCTGCTTGTATCACTGTGCTAG: 0.444 z-score
TTAGGTTTCCTGCTCCTTTAGTGCTAG: 0.885 z-score
GGCAGGCTTGCCAGTTCCCCGTGCTAG: -1.19 z-score

For quick reference, copied from above (series 2):
ACCGAAAT: -0.0272
ACAGACCG: 0.136
ATCCTCCC: -0.0614
GCATCCCA: -0.1
AGCGCAAC: 0.231
ACACGTAC: -0.0333
